Assay results gathered from unrelated publications.
Protocols differ between the studies behind these lines. ± gives the spread as reported.

`O=C([O-])CN1CCN(CC(=O)[O-])CCN(CC(=O)NC[C@H]2CC[C@H](C(=O)N[C@H](Cc3cnc4ccccc4c3)C(=O)NCCCC[C@H](NC(=O)N[C@@H](CCC(=O)O)C(=O)O)C(=O)O)CC2)CCN(CC(=O)[O-])CC1.[64Cu+2]` has an absorbed dose of 0.165 mGy/MBq (PET/CT dosimetry OLINDA/EXM; healthy volunteers, kidneys; up to 24 h post-injection).
With `COc1ccnc(C[S+]([O-])c2nc3cc(-n4cccc4)ccc3[nH]2)c1C` (centres unmarked) the AUC(0-t) ratio was 1.95 (male Sprague Dawley rats, plasma; oral, 5 mg/kg ilaprazole racemate; baseline: compound over R-ilaprazole).
The elimination half-life of `CCCC[C@H](NC(=O)[C@H](CC(C)C)N(C)C(=O)CNC(=O)[C@@H](NC(=O)[C@H](Cc1ccccc1)NC(=O)[C@H](CCCCN)NC(=O)[C@@H](N)CC(=O)O)C(C)C)C(N)=O` is reported as 9.1 min (Göttingen minipig, plasma; subcutaneous, 100 µg/kg).
`CCCC[C@@H]1NC(=O)[C@@H](NC(=O)[C@H](CCC(=O)O)NC(=O)CNC(=O)CN2CCN(CC(=O)O)CCN(CC(=O)O)CCN(CC(=O)O)CC2)CCCCNC(=O)C[C@@H](C(N)=O)NC(=O)[C@H](C(C)C)NC(=O)[C@@H]2CCCN2C(=O)[C@H](CCCNC(=N)N)NC(=O)CNC(=O)[C@H](Cc2c[nH]c3ccccc23)NC(=O)[C@H](CCCNC(=N)N)NC(=O)[C@@H](Cc2ccccc2)NC(=O)[C@H](Cc2c[nH]cn2)NC(=O)[C@H](CCC(=O)O)NC1=O` [gallium-67 labelled] has a tumour uptake of 5.02 ± 1.35 %ID/g (C57 mice, B16/F1 flank melanoma, tumour; intravenous, 0.037 MBq, 24 h).
`COc1cc(N(C)CCN(C)C)c(NC(=O)CCSCC(NC(C)=O)C(=O)O)cc1Nc1nccc(-c2cn(C3CC3)c3ccccc23)n1` (centres unmarked) has an excreted amount of 0.45% (radio-HPLC; human, feces; 96 to 240 h, sample holds 16.61% dose; baseline: dose).
For `COc1ccc(-c2csc(N/N=C(\C)c3cc(O)cc(O)c3)n2)cc1`, the concentration change was -9.6% (LC-MS/MS; rat plasma; 3.75 ng/mL, 20 °C, 5 freeze-thaw cycles).
The HC50 of `CCCCCc1cn(CCCCCCCCCCCOP(=O)([O-])OCC[N+](C)(C)C)nn1` is reported as over 100 µM (hemolysis; human red blood cells; 1 h, 37 °C).
`O=C(CCc1ccc(CNC(C(=O)O)C2CCCCC2)cn1)NO` (centres unmarked) has an AUC(tau) of 0.137 µg·h/mL (human, plasma; oral, 20 mg once daily, day 1, geometric mean).
`CC(C)c1cnc(-c2cc(Cl)ccc2F)cc1Nc1ccncc1C(=O)NC(CO)CO`: “patients with treatment-related adverse event” 0% (monotherapy, item: vomiting; human patients; oral, dose not given, grade 3, phase I A).
Under “fluorescence lifetime τ3”, `NCCC(=O)N1Cc2ccccc2-c2c(nnn2-c2cn(C3OC(CO)C(O)C3O)c(=O)[nH]c2=O)-c2ccccc21` (mixture of isomers) is recorded as 7.8 ns (frequency-domain fluorometry; methanol).
Under “bacterial test positive incidence”, `Cn1c(=O)oc2ccc(-c3ccc(CC(C#N)NC(=O)C4CNCCCO4)c(F)c3)cc21` (centres unmarked) is recorded as 0% (human; oral, 20 mg once daily, TEAE, multiple ascending dose).
With `[11CH3]c1ccc2nc(C3CCC3)n(-c3ccc4[nH]ncc4c3)c2n1` the absorbed dose was 2.9 µSv/MBq (extrapolated from mouse biodistribution; human male, total body).
For `CC(C)C[C@@H](NC(=O)[C@H](NC(=O)[C@H]1CCCN1)[C@H](C)O)C(=O)N[C@H](Cc1c[nH]cn1)C(=O)N[C@@H](C(=O)N[C@H](Cc1c[nH]cn1)C(=O)N[C@H](CC(N)=O)C(=O)N[C@H](CCCNC(=N)N)C(=O)N[C@H](CCCNC(=N)N)C(=O)N[C@H](CCCNC(=N)N)C(=O)N[C@H](CCCNC(=N)N)C(=O)N[C@H](CCCNC(=N)N)C(N)=O)[C@H](C)O`, “AUC fraction of gamma phase” read 3.4% (Beagle dog, plasma; intravenous, 3 mg/kg, single dose).
With `CC(C)[C@H](NC(=O)[C@@H]1CCCN1C(=O)[C@H](CCCNC(=N)N)NC(=O)[C@H](CS)NC(=O)[C@H](Cc1c[nH]c2ccccc12)NC(=O)[C@H](CCCNC(=N)N)NC(=O)[C@@H](Cc1ccccc1)NC(=O)[C@H](Cc1c[nH]cn1)NC(=O)[C@H](CCC(=O)O)NC(=O)[C@H](CS)NC(=O)[C@H](CS)NC(=O)[C@@H]1CC(=O)N[C@@H](CCCNC(=N)N)C(=O)NCC(=O)N[C@@H](CC(=O)O)C(=O)N[C@H](Cc2ccc(O)cc2)C(=O)N1)C(N)=O` [technetium-99m labelled] the tissue uptake was 0.69 ± 0.25 %ID/g (C57 mouse, female, B16/F1 melanoma, stomach; intravenous, 0.037 MBq, 24 h).
With `CCc1c2c(nc3ccc(O)cc13)-c1cc3c(c(=O)n1C2)COC(=O)[C@]3(O)CC` the Tmax was 1.36 h (human patients, plasma; intravenous, 56 mg/m^2 of parent drug).
The AUC(0-inf) of `CN1CCC(N[C@@H]2CCc3[nH]c4c(C(N)=O)ccc(-c5ccccc5Cl)c4c3C2)CC1` is reported as 0.285 ± 0.0558 µg·h/mL (BALB/c mice, plasma; intravenous, 2 mg/kg).
With `O=C1OC2(c3ccccc31)c1cc(I)c(O)c(I)c1Oc1c2cc(I)c(O)c1I` the AUC(0-inf) was 54.2 µg·h/mL (female C57BL/6 mouse, plasma; intraperitoneal, 50 mg/kg).
`O=[N][Fe]1([N]=O)[S](CCO)[Fe]([N]=O)([N]=O)[S]1CCO` has an NO released of about 2 equivalents (nitrate/nitrite colorimetric; simulated gastric fluid; 37 °C).
`CC(C)CCCC(C)CCCC(C)CCO[C@@H]1O[C@H](CO)[C@@H](O[C@H]2O[C@H](CO)[C@@H](O)[C@H](O)[C@H]2O)[C@H](O)[C@H]1O` (some centres unmarked) — result for “interfacial tension at tmax”: under 1 mN/m (drop shape analysis; water/n-octane; 0.01 wt%).
`Cc1ccc(OCC(=O)O)cc1` gave a t1/2 of 1.91 h (Sprague-Dawley rat, male, plasma; oral gavage, 30 mg/kg of parent drug).
The fraction unbound of `C=C(C)C(=O)Nc1ccc(-c2c(-c3ccc(Oc4nccc(C)n4)cc3)c3c(N)ncnc3n2C)cc1` is reported as 0.0017 (cynomolgus monkey, plasma; 5 µM, 18 h).
`CC(C)(O)c1ncc([S@](N)(=O)=NC(=O)Nc2c3c(cc4c2CCC4)CCC3)s1` has a Cmax of 26.3 µg/mL (healthy human; oral, 200 mg once daily, day 14, spray-dried dispersion, geometric mean).
The fluorescence lifetime of `Cc1ccc(-c2ccc(-c3cc4sccc4o3)cn2)nc1` is reported as 2.31 ns (TCSPC; water, HEPES 100 mM; pH 7.4).
`CCOC(=O)c1[nH]c(C)c(/C=C/c2c(I)c(C)c3n2[B-](F)(F)[N+]2=C(C)C(I)=C(C)C2=C3c2cc(OC)cc(OC)c2)c1C` — result for “fluorescence quantum yield”: 0.22 (THF; baseline: methylene blue).
For `CN1CCC[C@]1(C)/C=C/S(=O)(=O)NC(=O)Nc1c2c(cc3c1CCC3)CCC2`, “Tmax after second dose, median” read 1 h (human, plasma; oral, 100 mg twice daily, day 14, multiple ascending dose).
`CC(C)[C@H](NC(=O)CNC(=O)[C@H](CCC(N)=O)NC(=O)[C@H](C)N)C(=O)O` gave a Cmax of 4.81 µg/mL (LC-MS/MS; human, male, plasma; intravenous, 30 mg/kg three times daily, day 2, first dose, 10 min infusion, geometric mean).
With `CC(CCCOC(=O)CCC[N+](C)(C)C)C1CCC2C3CCC4CC(OC(=O)CCC[N+](C)(C)C)CCC4(C)C3CC(OC(=O)CCC[N+](C)(C)C)C12C` (centres unmarked) the HC50 was over 1000 µg/mL (mouse red blood cells; 1 h, 37 °C).
With `CC(=O)[CH](C(C)=O)[Pt-2]1([S+](C)C)[O]C(C)=CC(C)=[O+]1` (centres unmarked) the total protein was 5.38 ± 2.9 g/dL (rat, blood; intravenous, 5 mg/kg, single dose).
For `CN(CCCN=Cc1ccccc1[O-])CCN(C)CCCN=Cc1ccccc1[O-].[67Ga+3]`, “tissue uptake ratio” read 6.5 ± 0.3 (rat; intravenous, 1 min; baseline: heart over blood).
